Experimental data pooled from the literature.
Numbered parts are unrelated; each lists some results of a single study.
Chain of UniProt P51812 (whole entry, looked up): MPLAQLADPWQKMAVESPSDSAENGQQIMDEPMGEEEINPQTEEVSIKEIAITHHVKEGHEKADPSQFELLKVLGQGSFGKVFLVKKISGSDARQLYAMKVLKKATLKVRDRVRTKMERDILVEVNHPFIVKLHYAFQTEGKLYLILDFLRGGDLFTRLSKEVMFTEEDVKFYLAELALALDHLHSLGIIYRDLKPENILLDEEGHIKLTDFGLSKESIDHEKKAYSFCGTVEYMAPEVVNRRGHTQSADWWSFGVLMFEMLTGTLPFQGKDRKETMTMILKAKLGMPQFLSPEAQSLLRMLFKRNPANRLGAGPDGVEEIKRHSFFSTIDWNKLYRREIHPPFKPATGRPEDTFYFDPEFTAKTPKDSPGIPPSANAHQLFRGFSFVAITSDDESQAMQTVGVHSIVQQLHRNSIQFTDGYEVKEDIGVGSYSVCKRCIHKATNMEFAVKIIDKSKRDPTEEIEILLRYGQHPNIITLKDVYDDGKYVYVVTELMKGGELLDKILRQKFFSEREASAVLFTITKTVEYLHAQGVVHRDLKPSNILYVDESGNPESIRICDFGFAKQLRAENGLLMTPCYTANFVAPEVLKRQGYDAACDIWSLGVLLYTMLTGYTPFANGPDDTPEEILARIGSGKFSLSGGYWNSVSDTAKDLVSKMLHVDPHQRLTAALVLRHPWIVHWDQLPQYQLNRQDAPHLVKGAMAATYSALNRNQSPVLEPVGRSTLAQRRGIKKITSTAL

Series 1
Target: UBE2Q2 UBC core domain (UniProt Q8WVN8)
Chain of UniProt Q8WVN8 (whole entry, looked up): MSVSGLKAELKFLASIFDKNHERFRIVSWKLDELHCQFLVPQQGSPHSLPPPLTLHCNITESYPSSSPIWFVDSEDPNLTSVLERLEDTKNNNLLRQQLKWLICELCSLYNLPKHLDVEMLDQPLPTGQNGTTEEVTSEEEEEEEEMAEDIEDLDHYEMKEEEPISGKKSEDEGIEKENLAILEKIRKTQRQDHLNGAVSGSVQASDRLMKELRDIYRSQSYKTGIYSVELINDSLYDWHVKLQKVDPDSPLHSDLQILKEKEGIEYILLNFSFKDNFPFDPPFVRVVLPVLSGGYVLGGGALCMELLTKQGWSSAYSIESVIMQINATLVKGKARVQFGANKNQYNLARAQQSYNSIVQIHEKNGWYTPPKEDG
Method: yeast two-hybrid
Sample: yeast
Setting: mostly zero background
Reference: not given
Direction: higher = stronger interaction
B1: RNF181 RING domain (UniProt Q9P0P0); chain VIRGSQAELKCPVCLLEFEEEETAIEMPCHHLFHSSCILPWLSKTNSCPLCRYELPTDDDTY
B2: TRIM48 RING domain (UniProt Q8IWZ4); chain ISQVFQRELTCPICMNYFIDPVTIDCGHSFCRPCFYLNWQDIPILTQCFECIKTIQQRNLKT
B3: PRKN RING domain (UniProt O60260); chain LIATNSRNITCITCTDVRSPVLVFQCNSRHVICLDCFHLYCVTRLNDRQFVHDPQLGYSLPCVAGCPNSLIKELHH
B4: TRIM22 RING domain (UniProt Q8IYM9); chain KEVKMSPQEGQKRDVCEHHGKKLQIFCKEDGKVICWVCELSQEHQGHQTFRINEVVKECQEK
B5: RNF24 RING domain (UniProt Q9Y225); chain KVKELNLHELCAVCLEDFKPRDELGICPCKHAFHRKCLIKWLEVRKVCPLCNMPVLQLAQLH
For `B1 (RNF181 RING domain)`, “lacZ reporter activity” read 0.
`QLRRLQEERTCKVCLDRAVSIVFVPCGHLVCAECAPGLQLCPICRAPVRSRVRTF (BIRC7 RING domain (UniProt Q96CA5))`: “lacZ reporter activity” 0.
For `KLWDINAHITCRLCSGYLIDATTVTECLHTFCRSCLVKYLEENNTCPTCRIVIHQSHPLQ (PCGF3 RING domain (UniProt Q3KNV8))`, “lacZ reporter activity” read 0.
`MDDQGCPRCKTTKYRNPSLKLMVNVCGHTLCESCVDLLFVRGAGNCPECGTPLRKSNFRV (MNAT1 RING domain (UniProt P51948))` — result for “lacZ reporter activity”: 0.
`B2 (TRIM48 RING domain)` — result for “lacZ reporter activity”: 0.
`B3 (PRKN RING domain)` — result for “lacZ reporter activity”: 0.
For `B4 (TRIM22 RING domain)`, “lacZ reporter activity” read 0.
`B5 (RNF24 RING domain)` — result for “lacZ reporter activity”: 0.

Series 2
Target: Ras GTPase-activating protein-binding protein 1, C-terminal RGG region (G3BP1, Homo sapiens, UniProt Q13283)
Chain of UniProt Q13283 (whole entry, looked up): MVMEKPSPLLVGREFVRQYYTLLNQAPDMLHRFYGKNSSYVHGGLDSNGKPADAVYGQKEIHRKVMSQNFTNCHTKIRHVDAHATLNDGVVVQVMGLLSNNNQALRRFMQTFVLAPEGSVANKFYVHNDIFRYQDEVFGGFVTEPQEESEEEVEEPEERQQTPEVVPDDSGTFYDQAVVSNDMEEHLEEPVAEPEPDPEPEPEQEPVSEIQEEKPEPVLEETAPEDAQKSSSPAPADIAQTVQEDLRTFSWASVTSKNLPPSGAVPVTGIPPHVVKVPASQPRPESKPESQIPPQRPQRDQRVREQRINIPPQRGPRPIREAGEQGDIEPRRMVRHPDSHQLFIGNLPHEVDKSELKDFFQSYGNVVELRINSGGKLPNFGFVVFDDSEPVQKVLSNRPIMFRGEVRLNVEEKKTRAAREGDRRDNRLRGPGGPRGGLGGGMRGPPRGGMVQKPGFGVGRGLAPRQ
Method: RNA Bind-n-Seq
Molecule type: RNA
Sample: in vitro
Tested at: 1 µM
Setting: whole 134-nt RNA, ends assumed
With: 150 mM KCl
Reference: input library
Direction: higher = stronger binding
All sequences stand within: GGGAGUUCUACAGUCCGACGAUC … UGGAAUUCUCGGGUGUCAAGG
`AAGUCCUGUGCUACACAUCGUAUGUACCGAAUCGUGUGUGUGUGUGUGUGUGUGUGUAAAGUAUUAUGUUACGCCGUUCGGAUCUGCACU` gave a log2 enrichment of 1.42.
For `GCAGGAAGUAAAAACAAAUGGAAAUGCUUCGGAUAGGGGCAGGGGUGGGGGUUGCUAAGGAAAGGGUGGGAUGGGAGUGGGUAAAGAGUU`, the log2 enrichment was 0.892.
`UGUCCUGUGCUUUCACAUUCUUUCUGCAUGGAGAAAGUAAUGUAUGCACAAGUGUGGAGAUUGCCCAGCACCAGCCAAUUUAUUUGAUCA` gave a log2 enrichment of -1.33.
For `CACAGACAACCCGCACCCACACAGACACAGAGGGAAGGGGUUGGGAUGGGGACAGGGUGCACAGCAGGGCGGGGUAGGACCCCAGCCCCU`, the log2 enrichment was -0.551.
`UCCUGUGCUACACAUCGUAUGUACCGAAUCGGGGUUUUUUGGUUUUUUGGGUUUUUUGGGAAAGUAUUAUGUUACGCCGUUCGGAUCUGC` gave a log2 enrichment of -0.768.
`CACAGACAACACGCACCCACACAGACACAGAGGAAAGGGGUUGGGAUGGGGACAGGGUGCACAGCAGGGCGGGGUAGGACCCCAGCCCCU` has a log2 enrichment of -0.357.
The log2 enrichment of `GUCCUGUGCUACACAUCGUAUGUACCGAAUCGGGCCCCCGGGCCCCCGGGGCCCCCGGAAAGUAUUAUGUUACGCCGUUCGGAUCUGCAC` is reported as -1.85.
For `GUCCUGUGCUACACAUCGUAUGUACCGAAUCGGGGUGGGGUUUUUUUGGGGAAAGGGGAAAGUAUUAUGUUACGCCGUUCGGAUCUGCAC`, the log2 enrichment was 1.62.

Series 3
Target: Histone acetyltransferase KAT6A, winged helix 2, GST fusion (KAT6A, Homo sapiens, UniProt Q92794, residues 85-181)
Method: protein binding microarray
Molecule type: double-stranded DNA, one strand shown
Sample: in vitro
Tested at: not given
Setting: 8-mer, flanks averaged, mean of 2 arrays, mostly near background
Reference: not given
Direction: higher = stronger binding
Residues (chain): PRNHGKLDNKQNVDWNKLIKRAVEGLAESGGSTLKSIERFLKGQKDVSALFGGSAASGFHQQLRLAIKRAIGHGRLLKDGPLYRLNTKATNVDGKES
`CTCCAGAG` has an E-score of 0.0938.
With `AATTCTTA` the E-score was -0.0279.
`ATTGTGGA` has an E-score of -0.102.
For `ACAGGGGA`, the E-score was -0.0378.
The E-score of `GAGCCCCC` is reported as -0.248.
The E-score of `GGGGCACC` is reported as 0.244.
With `GTTCTATA` the E-score was -0.112.
With `GCACTTAC` the E-score was -0.228.

Mixed results
`CCC(=O)N[C@@H]1CC[C@H](C(=O)N(C)c2ccc(-c3nc4ccccc4o3)cc2)C1` has a remaining binding of 91% (Ribosomal protein S6 kinase alpha-3, C-terminal kinase domain (RPS6KA3, Homo sapiens, UniProt P51812); cell-free assay, competition with immobilised ligand; 1 µM).

Repeated from above (series 2):
`AAGUCCUGUGCUACACAUCGUAUGUACCGAAUCGUGUGUGUGUGUGUGUGUGUGUGUAAAGUAUUAUGUUACGCCGUUCGGAUCUGCACU` gave a log2 enrichment of 1.42.
`UGUCCUGUGCUUUCACAUUCUUUCUGCAUGGAGAAAGUAAUGUAUGCACAAGUGUGGAGAUUGCCCAGCACCAGCCAAUUUAUUUGAUCA` gave a log2 enrichment of -1.33.
For `CACAGACAACCCGCACCCACACAGACACAGAGGGAAGGGGUUGGGAUGGGGACAGGGUGCACAGCAGGGCGGGGUAGGACCCCAGCCCCU`, the log2 enrichment was -0.551.
